{"data": "Measured values gathered from unrelated publications", "note": "Protocols differ between the studies behind these lines. ± gives the spread as reported."}
{"Compound": "COC(=O)c1ccccc1-c1c2ccc(=O)cc-2oc2c1ccc1cccc(O)c12", "sample": "12.5 mM aqueous NaOH", "pH": "pH 12.1", "setting": "10% DMSO", "molar extinction coefficient": "8610 M⁻¹ cm⁻¹"}
{"Compound": "CC1=N/C(=C\\c2cc(F)c(O)c(F)c2)C(=O)N1CCOCCNC(=O)OC(C)(C)C", "pH": "pH 7.5", "molar extinction coefficient": "33800 ± 500 M⁻¹ cm⁻¹"}
{"Compound": "[2H]C([2H])([2H])C1(C([2H])([2H])[2H])NC(=O)N(c2ccc(F)c(C(C)(F)F)c2)C1=O", "setting": "wavelength 270-900 nm", "molar extinction coefficient": "< 1000 M⁻¹ cm⁻¹"}
{"Compound": "CCCCN1C(=O)c2cccc3c(NCCCCCCN4CCOCC4)ccc(c23)C1=O", "sample": "acetonitrile", "molar extinction coefficient": "13700 M⁻¹ cm⁻¹"}
{"Compound": "COc1cccc(Cc2cc(CCC(=O)NC3=C(C)C4=C(C)c5c(C)cc(C)n5[B-](F)(F)[N+]4=C3C)nn(CC(=O)Nc3ccc(Br)cc3)c2=O)c1", "sample": "methanol", "molar extinction coefficient": "74400 M⁻¹ cm⁻¹"}
{"Compound": "CC1=N/C(=C\\c2cc(F)c(O)c(F)c2)C(=O)N1CCOCCOCCNC(=O)OC(C)(C)C", "pH": "pH 7.5", "molar extinction coefficient": "40000 ± 1000 M⁻¹ cm⁻¹"}
{"Compound": "CCCCN1C(=O)c2cccc3c(NCCCCCCCCCCN4CCOCC4)ccc(c23)C1=O", "sample": "toluene", "molar extinction coefficient": "12700 M⁻¹ cm⁻¹"}
{"Compound": "COC(=O)c1ccccc1-c1c2ccc(=[N+](C)C)cc-2oc2c1ccc1cccc(O)c12", "sample": "12.5 mM aqueous NaOH", "pH": "pH 12.1", "setting": "10% DMSO", "molar extinction coefficient": "17300 M⁻¹ cm⁻¹"}
{"Compound": "COc1cccc(Cc2cc(CCC(=O)NCCNc3cccc4c(S(=O)(=O)O)cccc34)nn(CC(=O)Nc3ccc(Br)cc3)c2=O)c1", "sample": "methanol", "molar extinction coefficient": "4600 M⁻¹ cm⁻¹"}
{"Compound": "CCCCN1C(=O)c2cccc3c(NCCCCN4CCOCC4)ccc(c23)C1=O", "sample": "dichloromethane", "molar extinction coefficient": "7900 M⁻¹ cm⁻¹"}
{"note": "Repeated from above:"}
{"Compound": "COc1cccc(Cc2cc(CCC(=O)NCCNc3cccc4c(S(=O)(=O)O)cccc34)nn(CC(=O)Nc3ccc(Br)cc3)c2=O)c1", "sample": "methanol", "molar extinction coefficient": "4600 M⁻¹ cm⁻¹"}
